Published values pooled from the literature.
Compare with care: the assays were run in different laboratories. ± gives the spread as reported. Converted amounts (≈) assume the structure as drawn.
OPRD1: Delta-type opioid receptor (OPRD1, Homo sapiens, UniProt P41143)
OPRK1: Kappa-type opioid receptor (OPRK1, Homo sapiens, UniProt P41145)
Oprm1: Mu-type opioid receptor (Oprm1, Rattus norvegicus, UniProt P33535)
Butyrylcholinesterase: Butyrylcholinesterase (Sus scrofa, UniProt A0A4X1VEU5)

By UniProt entry, the sequences of proteins in these tests, tags left out. Residues count along the entry.
UniProt P41145, whole entry: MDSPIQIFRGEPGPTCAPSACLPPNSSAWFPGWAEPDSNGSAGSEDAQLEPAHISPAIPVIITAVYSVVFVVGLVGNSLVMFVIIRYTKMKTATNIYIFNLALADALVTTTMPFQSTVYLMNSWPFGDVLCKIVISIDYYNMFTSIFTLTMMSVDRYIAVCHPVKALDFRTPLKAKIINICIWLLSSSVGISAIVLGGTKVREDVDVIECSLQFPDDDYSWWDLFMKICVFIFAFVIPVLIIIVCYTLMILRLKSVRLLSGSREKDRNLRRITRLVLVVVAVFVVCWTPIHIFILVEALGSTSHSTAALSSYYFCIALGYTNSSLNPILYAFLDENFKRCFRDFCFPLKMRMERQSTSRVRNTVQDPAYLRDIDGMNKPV
UniProt A0A4X1VEU5, 29-602 limits assumed: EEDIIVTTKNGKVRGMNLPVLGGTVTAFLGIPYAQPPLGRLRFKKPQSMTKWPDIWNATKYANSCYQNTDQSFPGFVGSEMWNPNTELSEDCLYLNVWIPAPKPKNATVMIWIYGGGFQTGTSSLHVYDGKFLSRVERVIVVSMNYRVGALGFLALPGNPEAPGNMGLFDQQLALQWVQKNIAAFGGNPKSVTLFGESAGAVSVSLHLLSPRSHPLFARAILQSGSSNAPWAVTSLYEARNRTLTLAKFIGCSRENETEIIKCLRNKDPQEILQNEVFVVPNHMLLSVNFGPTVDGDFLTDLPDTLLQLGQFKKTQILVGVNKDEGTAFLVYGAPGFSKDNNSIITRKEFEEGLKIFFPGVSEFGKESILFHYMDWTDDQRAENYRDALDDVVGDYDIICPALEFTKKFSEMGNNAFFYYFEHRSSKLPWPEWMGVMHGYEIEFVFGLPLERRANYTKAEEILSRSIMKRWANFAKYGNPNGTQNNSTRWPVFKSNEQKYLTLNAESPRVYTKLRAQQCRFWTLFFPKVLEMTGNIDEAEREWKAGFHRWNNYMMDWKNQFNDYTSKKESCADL
UniProt P06276, 29-602 limits assumed: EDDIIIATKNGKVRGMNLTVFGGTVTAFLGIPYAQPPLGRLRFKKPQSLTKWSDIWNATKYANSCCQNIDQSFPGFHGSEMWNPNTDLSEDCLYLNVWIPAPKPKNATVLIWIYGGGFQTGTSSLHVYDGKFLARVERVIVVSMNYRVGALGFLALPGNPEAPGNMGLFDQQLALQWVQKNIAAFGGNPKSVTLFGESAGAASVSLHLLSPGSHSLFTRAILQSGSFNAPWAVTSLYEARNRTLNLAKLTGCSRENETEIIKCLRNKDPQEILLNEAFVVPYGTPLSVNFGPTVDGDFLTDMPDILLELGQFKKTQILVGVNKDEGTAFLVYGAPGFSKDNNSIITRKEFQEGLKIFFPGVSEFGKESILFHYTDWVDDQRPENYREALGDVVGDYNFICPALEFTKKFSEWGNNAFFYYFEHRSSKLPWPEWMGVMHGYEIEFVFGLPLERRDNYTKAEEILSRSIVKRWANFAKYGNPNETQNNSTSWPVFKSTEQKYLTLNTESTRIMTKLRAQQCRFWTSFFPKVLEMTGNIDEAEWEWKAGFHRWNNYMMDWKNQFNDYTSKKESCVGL
UniProt P22303, whole entry, looked up: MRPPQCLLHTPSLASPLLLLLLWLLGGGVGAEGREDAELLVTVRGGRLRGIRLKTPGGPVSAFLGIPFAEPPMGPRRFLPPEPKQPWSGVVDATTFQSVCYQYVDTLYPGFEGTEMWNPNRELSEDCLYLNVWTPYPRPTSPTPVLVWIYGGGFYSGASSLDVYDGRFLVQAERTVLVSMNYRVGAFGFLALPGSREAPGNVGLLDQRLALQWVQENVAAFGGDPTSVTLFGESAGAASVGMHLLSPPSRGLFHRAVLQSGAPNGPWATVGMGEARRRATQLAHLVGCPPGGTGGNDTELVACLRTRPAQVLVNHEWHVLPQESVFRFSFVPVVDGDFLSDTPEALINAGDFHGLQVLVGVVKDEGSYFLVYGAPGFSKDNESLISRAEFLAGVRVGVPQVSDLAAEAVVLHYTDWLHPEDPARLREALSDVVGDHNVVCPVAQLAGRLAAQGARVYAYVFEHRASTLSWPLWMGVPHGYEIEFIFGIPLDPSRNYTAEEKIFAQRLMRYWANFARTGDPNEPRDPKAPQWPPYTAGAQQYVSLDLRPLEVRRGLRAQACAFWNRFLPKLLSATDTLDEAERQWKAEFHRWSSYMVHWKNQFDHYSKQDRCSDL
UniProt Q16539, whole entry: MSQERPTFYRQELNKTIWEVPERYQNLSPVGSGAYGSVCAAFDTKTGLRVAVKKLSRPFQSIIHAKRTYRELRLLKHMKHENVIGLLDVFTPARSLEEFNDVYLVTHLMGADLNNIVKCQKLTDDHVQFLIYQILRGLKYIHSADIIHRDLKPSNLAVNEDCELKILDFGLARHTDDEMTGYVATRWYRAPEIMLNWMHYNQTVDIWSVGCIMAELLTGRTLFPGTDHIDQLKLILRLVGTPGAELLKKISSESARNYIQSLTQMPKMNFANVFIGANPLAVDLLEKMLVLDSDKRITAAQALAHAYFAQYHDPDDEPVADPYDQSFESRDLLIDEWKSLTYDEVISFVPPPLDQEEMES
UniProt P12392, whole entry, looked up: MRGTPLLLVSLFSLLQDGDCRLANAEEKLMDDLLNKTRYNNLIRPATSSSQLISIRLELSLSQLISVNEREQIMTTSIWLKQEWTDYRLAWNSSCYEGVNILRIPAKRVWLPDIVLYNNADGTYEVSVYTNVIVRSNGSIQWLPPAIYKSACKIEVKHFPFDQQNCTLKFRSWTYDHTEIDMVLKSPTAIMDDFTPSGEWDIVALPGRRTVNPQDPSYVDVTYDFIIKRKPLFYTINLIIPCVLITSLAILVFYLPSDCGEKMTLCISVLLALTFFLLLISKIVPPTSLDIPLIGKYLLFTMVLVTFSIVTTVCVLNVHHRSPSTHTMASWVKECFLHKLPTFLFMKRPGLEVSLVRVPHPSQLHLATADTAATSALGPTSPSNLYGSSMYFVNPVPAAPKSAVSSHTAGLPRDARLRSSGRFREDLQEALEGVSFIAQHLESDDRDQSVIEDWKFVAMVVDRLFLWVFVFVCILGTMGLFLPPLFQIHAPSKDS
UniProt P43143, whole entry M241L/F253L/V303I/V320I/I327V/A333T/K339T, looked up: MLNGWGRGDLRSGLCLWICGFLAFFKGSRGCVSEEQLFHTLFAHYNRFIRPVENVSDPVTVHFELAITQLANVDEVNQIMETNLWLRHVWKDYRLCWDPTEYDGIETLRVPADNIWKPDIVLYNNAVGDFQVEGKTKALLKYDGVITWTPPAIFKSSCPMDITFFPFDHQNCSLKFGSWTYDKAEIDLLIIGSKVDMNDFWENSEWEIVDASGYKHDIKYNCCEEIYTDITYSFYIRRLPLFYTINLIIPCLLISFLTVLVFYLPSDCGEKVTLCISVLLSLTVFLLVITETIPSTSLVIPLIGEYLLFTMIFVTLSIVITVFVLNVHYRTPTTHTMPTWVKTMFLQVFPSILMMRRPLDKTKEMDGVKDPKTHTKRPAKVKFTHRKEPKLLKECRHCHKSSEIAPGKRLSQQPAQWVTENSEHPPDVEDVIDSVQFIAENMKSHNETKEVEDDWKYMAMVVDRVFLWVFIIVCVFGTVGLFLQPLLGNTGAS
UniProt L7N662, 1-485: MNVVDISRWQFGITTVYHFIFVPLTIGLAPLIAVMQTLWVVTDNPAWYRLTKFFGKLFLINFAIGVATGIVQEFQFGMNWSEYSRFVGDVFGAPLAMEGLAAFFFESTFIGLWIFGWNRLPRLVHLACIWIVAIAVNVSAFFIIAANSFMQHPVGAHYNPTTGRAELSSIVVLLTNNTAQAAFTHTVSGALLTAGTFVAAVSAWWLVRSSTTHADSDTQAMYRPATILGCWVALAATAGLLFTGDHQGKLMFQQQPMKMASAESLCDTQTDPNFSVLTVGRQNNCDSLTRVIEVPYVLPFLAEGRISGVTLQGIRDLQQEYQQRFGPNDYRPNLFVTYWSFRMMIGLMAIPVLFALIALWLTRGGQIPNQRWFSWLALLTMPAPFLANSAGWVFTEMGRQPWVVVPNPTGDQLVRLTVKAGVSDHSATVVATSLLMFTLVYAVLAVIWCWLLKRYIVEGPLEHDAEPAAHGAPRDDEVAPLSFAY
UniProt P21452, whole entry: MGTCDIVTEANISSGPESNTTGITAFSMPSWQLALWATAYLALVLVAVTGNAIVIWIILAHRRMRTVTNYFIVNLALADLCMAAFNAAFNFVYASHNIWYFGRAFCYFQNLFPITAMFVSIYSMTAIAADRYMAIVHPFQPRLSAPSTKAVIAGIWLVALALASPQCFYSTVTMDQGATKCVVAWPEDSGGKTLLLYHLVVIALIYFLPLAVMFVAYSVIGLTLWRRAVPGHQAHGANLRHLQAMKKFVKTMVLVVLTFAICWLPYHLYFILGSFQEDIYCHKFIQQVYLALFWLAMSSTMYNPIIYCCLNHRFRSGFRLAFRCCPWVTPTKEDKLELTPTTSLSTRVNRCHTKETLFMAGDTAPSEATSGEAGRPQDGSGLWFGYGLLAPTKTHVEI
UniProt Q869C3, whole entry, looked up: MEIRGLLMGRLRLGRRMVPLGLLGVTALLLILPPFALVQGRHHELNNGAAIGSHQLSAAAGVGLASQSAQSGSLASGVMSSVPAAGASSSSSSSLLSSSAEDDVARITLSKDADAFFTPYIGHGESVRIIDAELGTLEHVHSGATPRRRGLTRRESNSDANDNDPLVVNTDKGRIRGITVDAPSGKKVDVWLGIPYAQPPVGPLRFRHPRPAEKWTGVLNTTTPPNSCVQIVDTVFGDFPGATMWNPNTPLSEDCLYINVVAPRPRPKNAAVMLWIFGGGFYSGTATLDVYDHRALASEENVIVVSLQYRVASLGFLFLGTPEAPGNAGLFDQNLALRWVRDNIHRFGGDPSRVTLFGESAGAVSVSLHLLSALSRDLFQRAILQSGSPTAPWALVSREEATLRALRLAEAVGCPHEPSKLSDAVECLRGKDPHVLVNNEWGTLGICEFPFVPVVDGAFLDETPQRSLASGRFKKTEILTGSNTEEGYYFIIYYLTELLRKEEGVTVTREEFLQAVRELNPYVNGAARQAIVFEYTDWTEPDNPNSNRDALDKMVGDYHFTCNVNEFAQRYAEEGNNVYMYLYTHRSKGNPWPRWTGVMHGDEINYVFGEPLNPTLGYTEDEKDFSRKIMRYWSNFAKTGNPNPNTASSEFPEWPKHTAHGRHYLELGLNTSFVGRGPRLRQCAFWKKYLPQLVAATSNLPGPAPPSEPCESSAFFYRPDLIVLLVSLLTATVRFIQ
UniProt Q9NR97, 27-1041 limits assumed: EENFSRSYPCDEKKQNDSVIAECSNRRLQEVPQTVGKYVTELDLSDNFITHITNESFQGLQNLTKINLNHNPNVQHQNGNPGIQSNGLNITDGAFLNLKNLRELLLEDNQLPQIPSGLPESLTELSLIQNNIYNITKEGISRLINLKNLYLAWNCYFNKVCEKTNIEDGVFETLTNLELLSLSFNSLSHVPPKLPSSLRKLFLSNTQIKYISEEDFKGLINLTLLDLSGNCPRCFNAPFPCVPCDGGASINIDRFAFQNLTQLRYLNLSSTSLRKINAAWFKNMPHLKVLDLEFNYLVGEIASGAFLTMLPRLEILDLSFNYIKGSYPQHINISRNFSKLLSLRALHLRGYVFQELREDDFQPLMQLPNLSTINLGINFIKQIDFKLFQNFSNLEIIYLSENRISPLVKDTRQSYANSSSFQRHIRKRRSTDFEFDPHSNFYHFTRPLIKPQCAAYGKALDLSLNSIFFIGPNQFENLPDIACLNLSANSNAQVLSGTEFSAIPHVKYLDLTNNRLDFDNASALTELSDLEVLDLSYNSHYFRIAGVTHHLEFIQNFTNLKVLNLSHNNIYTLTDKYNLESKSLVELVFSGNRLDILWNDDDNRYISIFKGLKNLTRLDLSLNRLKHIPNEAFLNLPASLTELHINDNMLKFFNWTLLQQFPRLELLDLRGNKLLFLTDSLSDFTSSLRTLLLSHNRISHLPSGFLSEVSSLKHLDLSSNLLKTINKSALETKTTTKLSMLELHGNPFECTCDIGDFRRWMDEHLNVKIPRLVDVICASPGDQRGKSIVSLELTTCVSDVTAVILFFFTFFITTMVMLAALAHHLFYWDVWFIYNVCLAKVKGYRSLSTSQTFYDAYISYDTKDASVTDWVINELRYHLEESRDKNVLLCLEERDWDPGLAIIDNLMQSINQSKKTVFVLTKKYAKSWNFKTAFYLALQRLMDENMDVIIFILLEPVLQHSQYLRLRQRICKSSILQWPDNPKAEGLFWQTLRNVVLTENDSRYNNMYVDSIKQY
UniProt P33534, whole entry: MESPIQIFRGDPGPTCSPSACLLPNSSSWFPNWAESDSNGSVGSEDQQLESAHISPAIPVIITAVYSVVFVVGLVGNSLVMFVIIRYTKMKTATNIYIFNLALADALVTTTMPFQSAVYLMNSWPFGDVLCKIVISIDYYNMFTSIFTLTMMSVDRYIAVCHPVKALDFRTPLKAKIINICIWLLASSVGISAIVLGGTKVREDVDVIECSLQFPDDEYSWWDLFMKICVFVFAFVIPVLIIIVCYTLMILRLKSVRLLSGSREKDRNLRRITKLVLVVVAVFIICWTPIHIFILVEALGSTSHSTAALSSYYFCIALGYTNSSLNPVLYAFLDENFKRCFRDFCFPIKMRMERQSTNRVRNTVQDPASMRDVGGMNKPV

| Molecule | target or system | assay | system | setting | scale | measurement | value |
| --- | --- | --- | --- | --- | --- | --- | --- |
| CCCC(=O)SCC[N+](C)(C)C | Cholinesterase (BCHE, Homo sapiens, UniProt P06276) | substrate |  |  |  | kcat | 500 s⁻¹ |
| Cc1ncc(-c2cc(Cl)ccc2F)cc1-n1c(=O)n(CC(N)=O)c2ccccc21 | OPRD1 | binding, radioligand binding |  | 10 µM |  | inhibition | 17.5% |
| Nc1ccc(O)c(CN(C2CCCCC2)C2CCCCC2)c1 | ACHE (Homo sapiens, UniProt P22303) | enzyme activity, inhibitor |  | 1000 µM |  | inhibition | 9% |
| CC#C/C(=N\OC[C@H]1COCCN1)c1ccc2ncnc(Nc3ccc(OCc4cccc(F)c4)c(Cl)c3)c2c1 | MAPK14 (Homo sapiens, UniProt Q16539) | kinase activity |  | 10 µM |  | inhibition | -3.4% |
| CC[C@H](C)[C@@H]1NC(=O)[C@H](CCC(=O)O)NC(=O)[C@@H]2CCCN2C(=O)[C@H](Cc2c[nH]cn2)NC(=O)[C@H](CC(N)=O)NC(=O)[C@H](CC(C)C)NC(=O)[C@H](Cc2c[nH]cn2)NC(=O)[C@@H]2CSSC[C@H](NC(=O)CN)C(=O)N[C@@H](CSSC[C@@H](C(N)=O)NC1=O)C(=O)N[C@@H](CO)C(=O)N[C@@H](Cc1c[nH]cn1)C(=O)N1CCC[C@H]1C(=O)N[C@@H](C)C(=O)N2 | Neuronal acetylcholine receptor; alpha3/beta2 (Rattus norvegicus, UniProt P04757+P12390) |  |  |  | baseline: IC50 α6/α3β2β3 over α3β2 | selectivity ratio | 3 |
| CN(C(=O)Cc1ccc(Cl)c(Cl)c1)[C@H](CN1CCCC1)c1ccccc1 | OPRK1 | agonist |  |  | baseline: U-50488 10 µM | Emax | 98.5 ± 1.4% |
| CO[C@]12CC[C@@]3(C[C@@H]1[C@](C)(O)c1ccccc1C)[C@H]1Cc4ccc(O)c5c4[C@@]3(CCN1CC1CC1)[C@H]2O5 | Oprm1 | G protein activation, agonist |  | 10 µM | baseline: DAMGO | stimulation | 17 ± 4% |
| Nc1ccc2nc3ccc(=O)cc-3oc2c1 | Mycobacterium tuberculosis |  | mc2 6206 bedaquiline-resistant MmpL5 regulator mutant | 7 days |  | MIC90 | 3.6 µM (≈ 0.764 µg/mL) |
| C[C@H](Cc1ccc(O)c(O)c1)[C@@H](C)Cc1ccc(O)c(O)c1 |  |  | human skin | 3% solution, 8 h, skin UV-treated 20 min |  | amount in epidermis | 19.3 ± 2.86 µg |
| U-69593 | OPRK1 | β-arrestin2 recruitment, agonist, high content imaging | U2OS expressing human KOR | unit not given | baseline: reference agonist | Δlog(τ/KA) | 0 |
| CSc1nc(Cl)cc(Sc2nnc(-c3cc(C(F)(F)F)cc(C(F)(F)F)c3)[nH]2)n1 | Acinetobacter baumannii |  | ATCC 9955 | together with: NAB7061 4 µg/mL |  | MIC | 1.5 µg/mL (≈ 3.18 µM) |
| CCOc1ccc2c(c1)Oc1cc(OCC)ccc1C21OC(=O)c2ccccc21 | Cytochrome P450 6P2 (Anopheles gambiae, UniProt Q8T629, V81I) | substrate |  | dual plasmid expression |  | Km | 1.4 ± 0.02 µM |
| CC(C)C[C@@H]1NC(=O)[C@H](CCC(=O)O)NC(=O)[C@@H]2CCCN2C(=O)[C@H](Cc2c[nH]cn2)NC(=O)[C@H](CCCCC(=O)O)NC(=O)[C@H](CC(C)C)NC(=O)[C@H](Cc2c[nH]cn2)NC(=O)[C@@H]2CSSC[C@H](NC(=O)CN)C(=O)N[C@@H](CSSC[C@@H](C(N)=O)NC1=O)C(=O)N[C@@H](CO)C(=O)N[C@@H](Cc1c[nH]cn1)C(=O)N1CCC[C@H]1C(=O)N[C@@H](C)C(=O)N2 | Nicotinic acetylcholine receptor alpha6/alpha3/beta4 (Rattus norvegicus, UniProt P04757+P12392+P43143) |  |  |  | baseline: IC50 α6/α3β4 over α3β2 | selectivity ratio | 114 |
| CCOc1ccc2cc(-c3nn(CC4CCN(C)CC4)c4ncnc(N)c34)ccc2n1 |  |  |  | concentration not given, human |  | half-life | > 2 h |
| CO[C@]12CC[C@@]3(C[C@@H]1[C@](C)(O)c1ccc(C(C)C)cc1)[C@H]1Cc4ccc(O)c5c4[C@@]3(CCN1CC1CC1)[C@H]2O5 | OPRK1 | G-protein activation, agonist |  | 10 µM | baseline: U-69593 | stimulation | 34 ± 3% |
| Cc1c(-c2ccc(-c3ccc(OC(F)(F)F)cc3)nc2)[nH]c2ccccc2c1=O | cydA, with CydB subunit (Mycobacterium tuberculosis, UniProt L7N662) | substrate |  |  |  | specific activity | 4.5 ± 0.9 µmol/min/mg |
| CO[C@]12CC[C@@]3(C[C@@H]1[C@@](C)(O)c1ccncc1)[C@H]1Cc4ccc(O)c5c4[C@@]3(CCN1CC1CC1)[C@H]2O5 | Oprm1 | G protein activation, agonist |  | 10 µM | baseline: DAMGO | stimulation | 1 ± 3% |
| methoxymethyl salvinorin B | OPRK1 | receptor internalization, agonist |  | concentration not given | baseline: dynorphin A | log intrinsic relative activity | 0.47 ± 0.11 |
| O=C(O)c1cccc(O)c1O | 2,3-dihydroxybenzoate-AMP ligase BasE (Acinetobacter baumannii, UniProt A0A0D5YGP3) | substrate |  | together with: ATP 1 mM |  | Km | 1.51 ± 0.3 µM |
| CCC(=O)SCC[N+](C)(C)C | Butyrylcholinesterase | substrate |  | pH 8.0, 22 °C |  | Km | 250 ± 10 µM |
| CN(C(=O)Cc1cccc2occc12)[C@H]1CC[C@@]2(CCCO2)C[C@@H]1N1CCCC1 | OPRK1 | G protein activation, agonist |  | concentration not given | baseline: dynorphin A | log intrinsic relative activity | 0.044 ± 0.1 |
| CCN1CCN(Cc2ccc(NC(=O)c3ccc(C)c(/C=C/c4cnc5[nH]ccc5c4OC)c3)cc2C(F)(F)F)CC1 | human ABL1 G2A | kinase-CDC37 interaction, inhibitor | human cells | 5 µM | baseline: vehicle | log2 fold change | -0.419 |
| CCN(CC)C(=O)Oc1ccc(C(=O)Nc2cccc3cc[nH]c23)cc1 | Neuronal acetylcholine receptor; alpha4/beta2 (Homo sapiens, UniProt P17787+P43681) | modulator, two-electrode voltage clamp | Xenopus oocytes | 20 µM, together with: 10 µM acetylcholine | baseline: agonist alone | current response | 97.3 ± 3.9% |

| Molecule | target or system | assay | system | setting | scale | measurement | value |
| --- | --- | --- | --- | --- | --- | --- | --- |
| nociceptin | OPRD1 | calcium mobilization, agonist | CHO with GαqG66Di5 |  |  | pEC50 | inactive |
| COc1ccc(OC[C@H]2c3cccn3CC(=O)N2Cc2cccc(F)c2)cc1 | Glutamate receptor ionotropic, NMDA 2B, with GluN1 (Grin2b, Rattus norvegicus, UniProt Q00960) | ion current, whole-cell patch clamp | HEK293T cells, transfected | 10 µM, together with: 1 mM glutamate for 10 ms plus 100 µM glycine |  | charge transfer | -12 ± 11 nA·ms |
| cysteamine S-phosphate | uncharacterized protein SAR11_0864 (Pelagibacter ubique, UniProt Q4FMA9) | differential scanning fluorimetry | Candidatus Pelagibacter ubique | single replicate |  | delta Tm | 2.19 °C |
| CC(C)[C@H]1CC[C@@H](N2CCC(n3c(CO)cc4ccccc43)CC2)CC1 | TACR2 (Homo sapiens, UniProt P21452) | radioligand binding |  | 10 µM |  | inhibition | 92% |
| COc1ccc(CCCCC(=O)C(F)(F)C(F)(F)F)cc1 | PLA2G6 (Homo sapiens, UniProt O60733) | enzyme activity, inhibitor, HPLC-MS/MS lipidomics |  |  | baseline: IC50 GV sPLA2 over IC50 PLA2G6 | selectivity ratio | 262 |
| CCN(Cc1ccncc1)C(=O)C(CO)c1ccccc1 (stereo not shown) | Muscarinic acetylcholine receptor (Xenopus laevis, UniProt A0A8J0U760) | binding, [3H]QNB competition | Xenopus laevis heart homogenate |  |  | Hill coefficient | 0.83 |
| CCCN1CCN(c2ccc3c(c2)C2CC3CCN2C(=O)OCc2ccccc2)CC1 (stereo not shown) | HRH2 (Homo sapiens, UniProt P25021) | binding, radioligand binding |  |  |  | Ki | 1770 nM |
| CO[C@]12CC[C@@]3(C[C@@H]1[C@](C)(O)c1ccc(Cl)cc1)[C@H]1Cc4ccc(O)c5c4[C@@]3(CCN1CC1CC1)[C@H]2O5 | OPRK1 | G-protein activation, agonist |  | 10 µM | baseline: U-69593 | stimulation | 17 ± 3% |
| O=c1[nH]c(CC2CCCCC2)cc(O)c1-c1ccccc1 | inhA (Mycobacterium tuberculosis, UniProt P9WGR1) | thermal shift |  |  |  | ΔTm | 1.5 °C |
| CO[C@]12CC[C@@]3(C[C@@H]1[C@](C)(O)c1cccc(C)c1)[C@H]1Cc4ccc(O)c5c4[C@@]3(CCN1CC1CC1)[C@H]2O5 | OPRK1 | G-protein activation, agonist |  | 10 µM | baseline: U-69593 | stimulation | 102 ± 1% |
| C[N+](C)(C)CCCCCCCCCC[N+](C)(C)C | Butyrylcholinesterase |  |  |  | baseline: Ki over Ki butyrylcholinesterase (human) | selectivity ratio | 100 fold |
| CNC(=O)Oc1ccc2c(c1)[C@]1(C)CCN(C)[C@@H]1N2C | Ace (Anopheles gambiae, UniProt Q869C3) | enzyme inhibition, inhibitor |  |  |  | k2 | 3.02 ± 0.21 min⁻¹ |
| CCCCOP(=O)(OCCCC)OCCCC | PPARG (Homo sapiens, UniProt P37231) | reporter gene, agonist, PPARγ1 reporter | HEK293 |  |  | concentration at maximal activation | 33 µM |
| Cc1ccc2[nH]c(CNCCC[C@H]3CCOC3)cc(=O)c2c1 | DRD2 (Homo sapiens, UniProt P14416) |  |  | 10 µM |  | binding | inactive |
| CCCc1nc2c(NP(=O)(OCC)OCC)nc3ccccc3c2s1 | TLR8 (Homo sapiens, UniProt Q9NR97) | reporter gene, agonist, refers to: NF-κB | HEK-Blue TLR8 cells | inactive means above 100 µM |  | EC50 | inactive |
| CN(C(=O)Cc1ccc(Cl)c(Cl)c1)[C@H]1CC[C@@]2(CCCO2)C[C@@H]1N1CCCC1 | DNA polymerase theta, ATPase domain (POLQ, Homo sapiens, UniProt O75417) | enzyme activity, inhibitor |  | 77 µM |  | remaining activity | 100% |
| O=C(O)c1ccccc1[As](=O)(O)O | SMPD1 (Homo sapiens, UniProt P17405) | enzyme activity |  | pH 5.0, together with: HMU-PC substrate |  | maximal inhibition | 102% |
| CN(C(=O)Cc1ccc(Cl)c(Cl)c1)C1CCC2(CCCO2)CC1N1CCCC1 (stereo not shown) | OPRK1 | receptor internalization, agonist, on-cell western |  | human receptor | baseline: control | Emax | 54.8 ± 7.9% |
| COc1ccc(C(=O)NC(Sc2ccc(Cl)cc2)C(Cl)(Cl)Cl)cc1 (stereo not shown) | TRPA1 (Homo sapiens, UniProt O75762) | antagonist, FLIPR calcium |  | concentration not given, together with: 30 µM mustard oil |  | MO-induced calcium influx | inhibited |
| O[As](O)O | Probable inositol transporter 2 (INT2, Arabidopsis thaliana, UniProt Q9C757) | arsenic uptake, substrate, ICP-MS | yeast expressing transporter | 30 min, 30 °C, together with: 2 µg/mL myo-inositol |  | Km | 219 µM |
| CC(=O)SCC[N+](C)(C)C | Butyrylcholinesterase | substrate |  |  |  | substrate inhibition constant (Kss) | 336 ± 167 mM |
| ethoxymethyl salvinorin B | Oprk1 (Mus musculus, UniProt P33534) | receptor internalization, agonist, on-cell western |  | mouse receptor | baseline: control | Emax | 46.8 ± 3.8% |
| CO[C@]12CC[C@@]3(C[C@@H]1[C@@](C)(O)C(C)(C)C)[C@H]1Cc4c(Cl)cc(O)c5c4[C@@]3(CCN1CC1CC1)[C@H]2O5 | OPRK1 | antagonist | CHO | concentration not given |  | antagonist activity | inhibited |

For quick reference, copied from above:
| Molecule | target or system | assay | system | setting | scale | measurement | value |
| --- | --- | --- | --- | --- | --- | --- | --- |
| CN(C(=O)Cc1cccc2occc12)[C@H]1CC[C@@]2(CCCO2)C[C@@H]1N1CCCC1 | OPRK1 | G protein activation, agonist |  | concentration not given | baseline: dynorphin A | log intrinsic relative activity | 0.044 ± 0.1 |
| CCN1CCN(Cc2ccc(NC(=O)c3ccc(C)c(/C=C/c4cnc5[nH]ccc5c4OC)c3)cc2C(F)(F)F)CC1 | human ABL1 G2A | kinase-CDC37 interaction, inhibitor | human cells | 5 µM | baseline: vehicle | log2 fold change | -0.419 |
| CCN(CC)C(=O)Oc1ccc(C(=O)Nc2cccc3cc[nH]c23)cc1 | Neuronal acetylcholine receptor; alpha4/beta2 (Homo sapiens, UniProt P17787+P43681) | modulator, two-electrode voltage clamp | Xenopus oocytes | 20 µM, together with: 10 µM acetylcholine | baseline: agonist alone | current response | 97.3 ± 3.9% |
